Literature values as cited in several papers.

Structure (SMILES) = OCCN1CCN(CCC=C2c3ccccc3Sc3ccc(C(F)(F)F)cc32)CC1; target or system = MCF7; assay = microarray, measured: BTG1; setting = concentration not given; how to read = relative to: DMSO; endpoint = mRNA fold change; result = 1.36
Structure (SMILES) = OC(Cn1cncn1)(Cn1cncn1)c1ccc(F)cc1F; assay = perpetrator, measured: diazepam; system = human; setting = dose not given; how to read = relative to: without compound; endpoint = AUC increase; result = 150%
Structure (SMILES) = O=C(NC1CC[C@@]2(O)[C@H]3Cc4ccc(O)c5c4[C@@]2(CCN3CC2CC2)C1O5)c1cccc(I)c1 (some centres unmarked); system = CD1 mice; setting = subcutaneous; endpoint = ED50; result = 0.39 mg/kg
Structure (SMILES) = NO; target or system = cyp (Nitrosomonas europaea, UniProt Q50927); endpoint = Kd; result = 9 mM
Structure (SMILES) = C=CCN1CC[C@]23c4c5ccc(O)c4OC2C(NC(=O)c2cccc(I)c2)CC[C@@]3(O)[C@H]1C5 (some centres unmarked); system = CD1 mice; setting = subcutaneous; endpoint = ED50; result = 0.6 mg/kg
Structure (SMILES) = CN1COCN(Cc2cnc(Cl)s2)/C1=N\[N+](=O)[O-]; system = soil; setting = 0.12 nominal, 28 days, Folsomia candida soil test; endpoint = recovery; result = 67%
Structure (SMILES) = CCCCCOc1ccc(-c2cc(-c3ccc(C(=O)N[C@H]4C[C@@H](O)[C@@H](O)NC(=O)[C@@H]5[C@@H](O)[C@@H](C)CN5C(=O)[C@H]([C@H](O)CC(N)=O)NC(=O)[C@H]([C@H](O)[C@@H](O)c5ccc(O)c(OS(=O)(=O)O)c5)NC(=O)[C@@H]5C[C@@H](O)CN5C(=O)[C@H]([C@@H](C)O)NC4=O)cc3)no2)cc1; system = healthy Chinese subjects; endpoint = t_half; result = 14.8 h
Structure (SMILES) = CCOC(=O)[C@@H]1CSCC(=O)N[C@H](CC)C(=O)N(C)[C@@H](C)C(=O)N[C@H](CC(C)C)C(=O)N(C)[C@H](C)C(=O)N(CC(C)C)CC(=O)N[C@H](CC(C)C)C(=O)N(C)[C@H](C)C(=O)N[C@@H](CC(C)C)C(=O)N1C; target or system = MDCK; endpoint = log permeability (Pe); result = -5.9

A few entries again:
Structure (SMILES) = C=CCN1CC[C@]23c4c5ccc(O)c4OC2C(NC(=O)c2cccc(I)c2)CC[C@@]3(O)[C@H]1C5 (some centres unmarked); system = CD1 mice; setting = subcutaneous; endpoint = ED50; result = 0.6 mg/kg
